Experimental data of several laboratories.
A part holds a random share of what one study measured. Substitutions count along the parent as printed.

Set 1 — technique: protein binding microarray; form: double-stranded DNA, one strand shown; sample: in vitro; tested at: not given; baseline: not given; reading: higher = stronger binding; endpoint: E-score
Target: Histone acetyltransferase KAT6A, winged helix 2, GST fusion (KAT6A, Homo sapiens, UniProt Q92794, residues 85-181)
Setting: 8-mer, flanks averaged, mean of 2 arrays, mostly near background
Target sequence (chain): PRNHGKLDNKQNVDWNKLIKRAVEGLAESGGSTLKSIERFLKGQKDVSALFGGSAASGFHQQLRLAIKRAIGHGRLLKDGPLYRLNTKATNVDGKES
AAGATGTC: -0.232
AGTAGGCA: 0.0709
GTAAGAAA: 0.0582
CTAATCCA: 0.00583
ATACTTCC: -0.146
ACGCCACA: 0.142
ATATTTAG: 0.0543
CCAAGAAC: 0.19

Set 2 — technique: RNA Bind-n-Seq; form: RNA; sample: in vitro; tested at: 15 pmol; setting: 4-mer, random 30-nt RNA, single round; together with: 3 µM DMDA-PatA, 2 mM AMP-PNP; baseline: input library; reading: higher = stronger binding; endpoint: 4-mer enrichment
Target: Eukaryotic initiation factor 4A-I (EIF4A1, Homo sapiens, UniProt P60842, residues 1-406, full length assumed)
Sequence of UniProt P60842 (whole entry, looked up): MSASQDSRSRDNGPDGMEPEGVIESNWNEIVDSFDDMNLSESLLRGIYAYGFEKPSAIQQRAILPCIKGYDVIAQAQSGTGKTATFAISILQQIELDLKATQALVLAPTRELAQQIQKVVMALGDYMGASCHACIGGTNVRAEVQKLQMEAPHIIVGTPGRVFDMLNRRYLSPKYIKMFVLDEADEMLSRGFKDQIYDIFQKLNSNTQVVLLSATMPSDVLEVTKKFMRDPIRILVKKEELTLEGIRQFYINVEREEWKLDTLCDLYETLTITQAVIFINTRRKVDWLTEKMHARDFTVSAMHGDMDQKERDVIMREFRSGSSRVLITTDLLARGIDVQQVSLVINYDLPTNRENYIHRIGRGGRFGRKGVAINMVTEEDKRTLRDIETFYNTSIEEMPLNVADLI
UAGC: 1.25 fold
UCCU: 0.652 fold
CUUU: 1.03 fold
ACGU: 0.944 fold
GAAC: 0.802 fold
CUUA: 0.947 fold
CCGA: 0.739 fold
UUCU: 0.812 fold

Set 3 — technique: RNA Bind-n-Seq; form: RNA; sample: in vitro; tested at: 200 nM; setting: whole 134-nt RNA, ends assumed; together with: 150 mM KCl; baseline: input library; reading: higher = stronger binding; endpoint: log2 enrichment
Target: Ras GTPase-activating protein-binding protein 1, full length (G3BP1, Homo sapiens, UniProt Q13283)
Sequence of UniProt Q13283 (whole entry, looked up): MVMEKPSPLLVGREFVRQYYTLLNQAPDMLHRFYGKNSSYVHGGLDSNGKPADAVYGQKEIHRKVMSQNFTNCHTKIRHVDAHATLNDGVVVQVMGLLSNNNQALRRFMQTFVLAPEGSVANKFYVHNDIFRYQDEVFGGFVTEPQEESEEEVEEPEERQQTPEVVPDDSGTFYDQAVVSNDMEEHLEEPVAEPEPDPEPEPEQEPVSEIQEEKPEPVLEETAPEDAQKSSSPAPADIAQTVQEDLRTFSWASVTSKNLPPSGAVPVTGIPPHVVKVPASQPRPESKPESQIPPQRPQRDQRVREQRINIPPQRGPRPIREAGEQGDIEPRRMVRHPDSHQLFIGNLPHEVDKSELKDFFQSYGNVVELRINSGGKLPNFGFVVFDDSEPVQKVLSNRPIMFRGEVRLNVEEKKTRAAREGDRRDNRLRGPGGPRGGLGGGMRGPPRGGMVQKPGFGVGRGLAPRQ
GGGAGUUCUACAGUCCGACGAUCCCUGUGCUACACAUCGUAUGUACCGAAUCGGGGCCCCCCCGGCCCCCCCGGCCCCCCCGGAAAGUAUUAUGUUACGCCGUUCGGAUCUGCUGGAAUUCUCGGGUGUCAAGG: 0.131
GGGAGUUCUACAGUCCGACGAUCAACAUGCAGGUGGGCAUCUUUGGGAAGUGGGGCAAGGGGGGGAUAGGGAGGGGGGUAACACUUUGGGAACAGGUGGUCCCAGGUCGUUUCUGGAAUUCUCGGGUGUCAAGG: 1.3
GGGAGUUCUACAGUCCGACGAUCAAGUCCUGUGCUACACAUCGUAUGUACCGAAUCGGUGGAAAAAAAGGAAAAAAAGGAAAGUAUUAUGUUACGCCGUUCGGAUCUGCACUUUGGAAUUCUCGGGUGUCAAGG: -1.09
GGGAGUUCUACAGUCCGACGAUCUCAAGUCCUGUGCUACACAUCGUAUGUACCGAAUCGGAAAGGUUUUUGGUUUGGAAAGUAUUAUGUUACGCCGUUCGGAUCUGCACUUCCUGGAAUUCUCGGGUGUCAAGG: -1.17
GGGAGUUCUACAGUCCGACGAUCUAACUUUAGAGGAGGAUCUGAUGGAUAUGGCAGUGGACGUGGAUAUGGGGAUGGCUAUAAUGGGUAUGGAGGAGGACCUGGAGGUGGCAAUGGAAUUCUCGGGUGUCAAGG: 0.512
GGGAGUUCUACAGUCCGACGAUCAGUCCUGUGCUACACAUCGUAUGUACCGAAUCGGAAAAAGGAAAAAGGGAAAAAGGGGAAAGUAUUAUGUUACGCCGUUCGGAUCUGCACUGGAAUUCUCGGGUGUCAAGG: -0.726
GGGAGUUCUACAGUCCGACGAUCACCAUGCAGGUGGGCAUCUUUGCGAAGUGGGGCAAGGGGGGGAUAGGGAGGGGGGUAACACUUUGGGAACAGGUGGUCCCAGGUCGUUUCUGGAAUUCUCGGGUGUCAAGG: 1.5
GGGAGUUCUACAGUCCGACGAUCUGUGCUACACAUCGUAUGUACCGAAUCGGGUUUUUUUGGGGUUUUUUUGGGUUUUUUUGGGGAAAGUAUUAUGUUACGCCGUUCGGAUCUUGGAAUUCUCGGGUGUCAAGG: -0.805

Mixed results
Starting sequence: PafA, mature enzyme, eGFP fusion (Elizabethkingia meningoseptica, UniProt Q9KJX5); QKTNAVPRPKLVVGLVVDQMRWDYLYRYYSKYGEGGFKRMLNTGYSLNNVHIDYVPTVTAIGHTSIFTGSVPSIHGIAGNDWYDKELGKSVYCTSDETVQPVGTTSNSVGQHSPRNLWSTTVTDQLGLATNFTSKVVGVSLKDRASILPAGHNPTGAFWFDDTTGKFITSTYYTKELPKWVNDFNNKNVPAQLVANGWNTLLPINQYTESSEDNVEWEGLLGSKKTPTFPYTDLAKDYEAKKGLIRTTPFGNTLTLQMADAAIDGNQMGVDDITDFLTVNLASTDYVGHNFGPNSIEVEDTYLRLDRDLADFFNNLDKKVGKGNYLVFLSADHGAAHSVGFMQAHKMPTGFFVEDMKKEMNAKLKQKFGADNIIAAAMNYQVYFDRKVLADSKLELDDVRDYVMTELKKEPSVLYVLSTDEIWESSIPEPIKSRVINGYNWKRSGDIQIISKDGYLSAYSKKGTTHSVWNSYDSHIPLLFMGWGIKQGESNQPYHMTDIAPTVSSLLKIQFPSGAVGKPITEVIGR
R307V
oxyanion analog dissociation constant (vanadate, free oxyanion; microfluidic competitive inhibition; in vitro, cell-free expressed; not given, derived from inhibition constants, unchanged parent 676 nM; lower = stronger binding): 1.06 µM

A few entries again (set 2):
CUUA: 0.947 fold
UUCU: 0.812 fold
